Published values collected from several papers.
Numbered parts are unrelated; each lists some results of a single study. “And” joins repeats or separate records; there may be more than shown.

Sample 1
Target: Mitogen-activated protein kinase 8 (MAPK8, Homo sapiens, UniProt P45983)
UniProt P45983, sequence (whole entry, looked up): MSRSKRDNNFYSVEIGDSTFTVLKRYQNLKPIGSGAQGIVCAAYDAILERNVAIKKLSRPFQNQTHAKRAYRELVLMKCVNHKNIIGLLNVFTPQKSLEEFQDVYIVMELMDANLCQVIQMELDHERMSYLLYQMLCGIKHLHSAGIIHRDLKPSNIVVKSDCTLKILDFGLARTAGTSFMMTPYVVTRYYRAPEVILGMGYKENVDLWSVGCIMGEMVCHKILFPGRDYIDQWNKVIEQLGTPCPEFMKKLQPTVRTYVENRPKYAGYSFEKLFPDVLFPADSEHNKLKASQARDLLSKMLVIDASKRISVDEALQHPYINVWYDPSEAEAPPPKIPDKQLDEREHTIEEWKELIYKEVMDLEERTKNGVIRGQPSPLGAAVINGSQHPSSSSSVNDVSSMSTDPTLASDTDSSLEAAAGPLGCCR
Effect on: enzyme activity
Mode: inhibitor
Tested at: 0.5 µM
Reference: control
| Compound | remaining activity [%] |
| --- | --- |
| CNC(=O)c1cc(Oc2ccc(NC(=O)Nc3ccc(Cl)c(C(F)(F)F)c3)cc2)ccn1 | 92.8 |
| COc1cc2ncnc(Nc3ccc(F)c(Cl)c3)c2cc1OCCCN1CCOCC1 | 93.1 |
| O=C(Nc1cccc(Nc2cc(Nc3cccc(C(F)(F)F)c3)ncn2)c1)C1CC1 | 93.4 |
| C#Cc1cccc(Nc2ncnc3cc(OCCOC)c(OCCOC)cc23)c1 | 95.5 |
| OCC(O)CCON=C1C(c2c(O)[nH]c3ccccc23)=Nc2ccccc21 (stereo not shown) | 101 |
| Cn1c2ccccc2c2c3c(c4c5ccccc5n(CCC#N)c4c21)CNC3=O | 78.7 |
| COc1ccc(CNC(=O)Nc2ncc([N+](=O)[O-])s2)cc1 | 104 |
| COc1cc2ncnc(Nc3ccc(Oc4ccccc4)cc3)c2cc1OC | 91.8 |
| O=C1NC(=O)C(c2cn(CCCO)c3ncccc23)=C1c1cnccn1 | 99.6 |
| CC(C)[C@H](CO)Nc1nc(Nc2cc(N)cc(Cl)c2)c2ncn(C(C)C)c2n1 | 93.4 |
| N#CC(C#N)=C(N)/C(C#N)=C/c1ccc(O)cc1 | 100 |
| Oc1ccc(-c2nc(-c3ccncc3)c(-c3ccc(F)cc3)[nH]2)cc1 | 98 |
| Cc1ccc(NC(=O)c2ccc(CN3CCN(C)CC3)cc2)cc1Nc1nc(-c2cccnc2)cs1 | 107 |
| O=S(=O)(c1cccc2cnccc12)N1CCCNCC1 | 89.7 |
| COc1ccc(C(=O)Nc2sc3c(c2C(N)=O)CCCC3)cc1OC | 94.7 |

Sample 2
Target: 5-hydroxytryptamine receptor 1D (HTR1D, Homo sapiens, UniProt P28221)
UniProt P28221, sequence (whole entry, looked up): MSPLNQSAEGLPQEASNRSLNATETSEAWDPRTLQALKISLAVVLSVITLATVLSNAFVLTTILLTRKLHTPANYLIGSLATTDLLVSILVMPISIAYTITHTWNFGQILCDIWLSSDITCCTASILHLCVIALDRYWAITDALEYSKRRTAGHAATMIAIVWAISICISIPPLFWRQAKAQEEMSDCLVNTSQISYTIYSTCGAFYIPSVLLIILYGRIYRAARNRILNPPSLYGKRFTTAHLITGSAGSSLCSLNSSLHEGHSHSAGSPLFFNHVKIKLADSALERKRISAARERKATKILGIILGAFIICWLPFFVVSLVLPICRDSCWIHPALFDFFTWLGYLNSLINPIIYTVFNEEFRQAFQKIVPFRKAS
Effect on: cell-free assay
Tested at: 10 µM
| Structure (SMILES) | inhibition |
| --- | --- |
| O=C(NNS(=O)(=O)c1ccccc1)c1cc(-c2ccnnc2)ccc1F | -15% |
| CC(=O)Nc1nc(CN2CCC[C@H](Cc3cc(C)nc(C)c3)C2)cs1 | 14.5% |
| CN(C)c1ncnc(-c2ccc3nc(Nc4cc(CN5CCN(C(=O)CC(F)(F)F)CC5)ccn4)[nH]c3c2)c1Cl | 19.5% |
| Nc1nc(NCc2ccccc2)nc(-c2cccc(CO)c2)n1 | 13.7% |
| O=C(NCCCC1CCCCC1)c1ccc(CNC(=O)c2cnn(-c3ccccc3)c2C(F)(F)F)cc1 | -8.35% |
| CN1C(=O)[C@@H](N2CCc3c(nn(Cc4ccccc4)c3Br)C2=O)COc2ccccc21 | -5.06% |
| CC1CCN(c2ccnc(NCc3cn(C)cn3)n2)CC1 | 81.9% |
| Nc1nc(NCc2ccccc2)nc(-c2ccccc2CO)n1 | 11.2% |
| O=C1c2ccc(Nc3ccc(F)cc3F)cc2CCc2ccc(OC[C@H](O)CO)cc21 | 23.8% |

Sample 3
Cell line: A-375
Tested at: 100 µM
Time: 18 h
| Structure (SMILES) | viability [%] |
| --- | --- |
| CC1CCc2c(N3CCC(O)CC3)c(F)cc3c(=O)c(C(=O)O)cn1c23 (stereo not shown) | 92.5 |
| OCCN1CCN(CCCN2c3ccccc3Sc3ccc(Cl)cc32)CC1 | 9.83 |
| Cc1ccc([C@@H]2O[C@H](CO)[C@@H](O)[C@H](O)[C@H]2O)cc1Cc1ccc(-c2ccc(F)cc2)s1 | 9.71 |
| OCc1ccc(O[C@@H]2O[C@H](CO)[C@@H](O)[C@H](O)[C@H]2O)cc1 | 104 |
| COC(=O)C1=CO[C@@H](O)[C@@H]2C(CO)=CC[C@H]12 | 94.6 |
| CCCC(=O)O[C@]1(C(=O)CO)CC[C@H]2[C@@H]3CCC4=CC(=O)CC[C@]4(C)[C@H]3[C@@H](O)C[C@@]21C | 76.7 |

Further values, each from its own experiment
| Compound | test | system | conditions | how to read | measurement | value |
| --- | --- | --- | --- | --- | --- | --- |
| CC(=O)N[C@@H](Cc1c[nH]c2ccccc12)C(=O)N[C@@H](CCC(=O)C=[N+]=[N-])C(=O)OC(C)C | UPLC-MS/MS | EL4 tumor, C57BL/6 CES1-/- mice, tumor | subcutaneous, 0.3 mg/kg DON equivalent daily, 5 days | higher = more metabolite | sucrose level | 516000 a.u. and 191000 a.u. and 76100 a.u. and 366000 a.u. and 239000 a.u. and 291000 a.u. |
